Results pooled from the literature.
Compare with care: the assays were run in different laboratories. Numbers after ± are the reported error.
Chain of UniProt P38646 (whole entry, looked up): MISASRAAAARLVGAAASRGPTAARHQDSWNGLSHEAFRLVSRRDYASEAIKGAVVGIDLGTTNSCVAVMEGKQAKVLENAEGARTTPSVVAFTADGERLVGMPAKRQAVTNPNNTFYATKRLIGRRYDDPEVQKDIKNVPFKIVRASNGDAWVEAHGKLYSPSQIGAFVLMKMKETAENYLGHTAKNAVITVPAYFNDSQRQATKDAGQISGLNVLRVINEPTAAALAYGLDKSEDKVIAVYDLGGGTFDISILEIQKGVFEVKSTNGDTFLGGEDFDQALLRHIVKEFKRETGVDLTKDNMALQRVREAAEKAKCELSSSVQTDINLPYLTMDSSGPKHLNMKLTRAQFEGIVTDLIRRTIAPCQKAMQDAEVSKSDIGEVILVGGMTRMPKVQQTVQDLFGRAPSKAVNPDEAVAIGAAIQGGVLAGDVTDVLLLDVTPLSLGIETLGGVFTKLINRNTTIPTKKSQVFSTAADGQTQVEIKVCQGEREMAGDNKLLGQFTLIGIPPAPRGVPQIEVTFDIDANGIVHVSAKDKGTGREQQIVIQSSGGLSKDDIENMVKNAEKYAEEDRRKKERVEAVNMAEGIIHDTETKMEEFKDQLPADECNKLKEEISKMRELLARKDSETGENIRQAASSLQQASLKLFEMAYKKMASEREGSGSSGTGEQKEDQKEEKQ

COc1ncccc1-c1cnn2ccc(N3CCN(C(=O)OC(C)C)CC3)nc12  drug concentration (rat, CCI mechanical hyperalgesia model, brain; oral, 10 mg/kg, 210 min): 4.5 µM
Cn1cc(-c2nc(N[C@@H]3CCCC[C@@H]3N)c(F)c3c2C(=O)NC3)cn1  hemorrhagic adverse events (item: Rectal haemorrhage; patients with relapsed or refractory AML; oral, 160 mg once daily): 11%
C[C@]1(CO)Cc2ncn(-c3ccc(C#N)c(Cl)c3)c2C(=O)O1  subjects with drug-related headache (human; 40 mg single dose): 0%
C[C@@H]1NC(=O)[C@H](CCCCNC(=O)CO/N=C/C(=O)NCCCC[C@@H]2NC(=O)[C@@H](Cc3ccccc3)NC(=O)[C@H](CC(=O)O)NC(=O)CNC(=O)[C@H](CCCNC(=N)N)NC2=O)NC(=O)CNC(=O)[C@@H]2CCCN2C(=O)[C@H](CCCCNC(=O)CO/N=C/C(=O)NCCCC[C@@H]2NC(=O)[C@@H](Cc3ccccc3)NC(=O)[C@H](CC(=O)O)NC(=O)CNC(=O)[C@H](CCCNC(=N)N)NC2=O)NC(=O)[C@H](CCCCNC(=O)CN2CCCNCCNCCCNCC2)NC(=O)[C@H](CCCCNC(=O)CO/N=C/C(=O)NCCCC[C@@H]2NC(=O)[C@@H](Cc3ccccc3)NC(=O)[C@H](CC(=O)O)NC(=O)CNC(=O)[C@H](CCCNC(=N)N)NC2=O)NC(=O)CNC(=O)[C@@H]2CCCN2C(=O)[C@H](CCCCNC(=O)CO/N=C/C(=O)NCCCC[C@@H]2NC(=O)[C@@H](Cc3ccccc3)NC(=O)[C@H](CC(=O)O)NC(=O)CNC(=O)[C@H](CCCNC(=N)N)NC2=O)NC1=O [copper-64 labelled]  tissue uptake (normal mice, kidney; intravenous, 0.74 MBq, 24 h post-injection): 14.6 ± 0.97 %ID/g
CC(=O)c1c(C)c2cnc(Nc3ccc(C4CCN(CCS(C)(=O)=O)CC4)cn3)nc2n(C2CCCC2)c1=O  t1/2 (human, plasma; oral, 150 mg, day 1 single dose): 519 min
O=[N+]([O-])NC1=NCCN1Cc1ccc(Cl)nc1  final permeate concentration (ultrafiltration; cow milk whey; 2000 nM nominal in whole milk): 1690 nM
CCN1[C@@H](C(=O)NC23CCC(C(=O)O)(CC2)CC3)[C@H](c2cccc(Cl)c2F)[C@]2(C(=O)Nc3cc(Cl)ccc32)C12CCCCC2  Myalgia incidence (patients with advanced solid tumours; oral, 150 mg): 0%
CSCC[C@H](NC(=O)[C@H](CC(C)C)NC(=O)[C@H](CCCCN)NC(=O)[C@H](Cc1c[nH]c2ccccc12)NC(=O)[C@H](CC(N)=O)NC(=O)[C@H](CCCCN)NC(=O)CNC(=O)[C@H](CC(C)C)NC(=O)[C@H](CC(C)C)NC(=O)[C@H](CCCCN)NC(=O)[C@@H](N)CCCCN)C(=O)NCCCC[C@H](NC(=O)[C@H](CCSC)NC(=O)[C@H](CC(C)C)NC(=O)[C@H](CCCCN)NC(=O)[C@H](Cc1c[nH]c2ccccc12)NC(=O)[C@H](CC(N)=O)NC(=O)[C@H](CCCCN)NC(=O)CNC(=O)[C@H](CC(C)C)NC(=O)[C@H](CC(C)C)NC(=O)[C@H](CCCCN)NC(=O)[C@@H](N)CCCCN)C(=O)NCCCC[C@H](NC(=O)[C@H](CCCCNC(=O)[C@H](CCSC)NC(=O)[C@H](CC(C)C)NC(=O)[C@H](CCCCN)NC(=O)[C@H](Cc1c[nH]c2ccccc12)NC(=O)[C@H](CC(N)=O)NC(=O)[C@H](CCCCN)NC(=O)CNC(=O)[C@H](CC(C)C)NC(=O)[C@H](CC(C)C)NC(=O)[C@H](CCCCN)NC(=O)[C@@H](N)CCCCN)NC(=O)[C@H](CCSC)NC(=O)[C@H](CC(C)C)NC(=O)[C@H](CCCCN)NC(=O)[C@H](Cc1c[nH]c2ccccc12)NC(=O)[C@H](CC(N)=O)NC(=O)[C@H](CCCCN)NC(=O)CNC(=O)[C@H](CC(C)C)NC(=O)[C@H](CC(C)C)NC(=O)[C@H](CCCCN)NC(=O)[C@@H](N)CCCCN)C(=O)NCCC(=O)O  methionine oxidation (mass spectrometry; human serum): 5 to 10%
CCCCN1CCC(COC(=O)c2ccc(N)c(O[11CH3])c2)CC1  parent radioligand fraction (rhesus monkey, arterial plasma; iv, 3.02 min): 48.3%
C[C@]1(O)C[C@@](N)(c2ccc(-c3nc4n(c3-c3ccccc3)COc3ccncc3-4)cc2)C1  patients with Nausea TEAE (human, advanced or metastatic solid tumours; 16 mg once daily, phase I dose escalation): 0%
O=S(=O)(Nc1ccccc1)c1ccc(NC(=S)Nc2ccccc2)cc1  haemoglobin (male mouse, blood; oral, 20 mg/kg daily, 14 days): 14.6 g/dL
COc1ccc(C[C@@H]2NC(=O)[C@H]([C@@H](C)O)NC(=O)[C@@H]3[C@@H]4CCN3C(=O)[C@@H]3Cc5cn(c6ccc(F)cc56)CCCCCCN(Cc5ccc(cc5)CCNC(=O)[C@]5(C)CCCN5C2=O)C(=O)CCC(=O)N[C@@H](C)C(=O)N[C@H](CNC(=O)CCCCC[N+](C)(C)C)C(=O)N[C@@H](Cc2cccc(c2)CNC(=O)CO4)C(=O)N3)cc1  adverse events (item: bone contusion; human; Study-003 safety): 3.2%
Cn1cncc1-c1c(F)cncc1NC(=O)c1c(N)nn2cc(F)cnc12  grade ≥3 hyperkalaemia incidence (human patients; oral, 80 mg once daily): 0%
COc1ccc2nc3cc(Cl)ccc3c(Nc3cc(CN4CCCC4)c(O)c(CN4CCCC4)c3)c2n1  mean platelet volume (mouse, blood; intraperitoneal, 57 mg/kg): 6.1 fL
CN1CCN(S(=O)(=O)c2cc([N+](=O)[O-])ccc2N(CCOS(C)(=O)=O)CCOS(C)(=O)=O)CC1  concentration (NSG mice female, plasma; intraperitoneal, 25 mg/kg, 1 h): 500 nM
CC(C)Nc1ccnc(Nc2cccc(-c3cccnc3)c2)n1  blood chemistry (item: ALT; mouse, blood; intraperitoneal, 3 mg/kg): 101 U/L
O=c1nc(NO)ccn1[C@@H]1O[C@H](CO)[C@@H](O)[C@H]1O  bench-top stability (rat maternal placenta dialysate; 25 ng/mL, 6 h, room temperature, low concentration, added: molnupiravir 5 ng/mL): 106 ± 3.61%
CCS(=O)(=O)Nc1ccc(Oc2ccc(F)cc2F)c(-c2cn(C)c(=O)c3[nH]ccc23)c1  treatment-emergent adverse events (septic shock leading to discontinuation; human, relapsed/refractory AML; oral, dose not given): 0%
COc1cc(C2C3=C(COC3=O)N(CCO)c3cc4c(cc32)CCC4)cc(OC)c1OC (centres unmarked)  body weight (female C57BL/6 mice; intraperitoneal, 200 mg/kg, 24 h, single dose, mean): 21 g
C=C(CN(C(=O)c1c(C(F)F)nn(C)c1F)C1CC1)c1ccc(Cl)cc1Cl  mortality (static acute toxicity test; zebrafish (Brachydanio rerio); 1.00 mg a.i./L, 96 h): 50%
C=CC(=O)Nc1cc(Nc2nccc(Nc3cc(Cl)c(F)cc3C(C)(C)O)n2)c(OC)cc1N1CC[C@@H](N(C)C)C1  incidence of vomiting (treatment-emergent adverse events; human; oral, 200 mg, phase I clinical trial): 18.8%
CC(C)(O)c1cc(Nc2cc(Oc3cn(C4CC4)nc3C3CCOCC3)ccn2)ccn1  treatment-emergent adverse events (item: Thrombocytopenia; Japanese patients with advanced cancer; oral, dose not given, any grade): 0%
CC(C)C[C@H](NC(=O)[C@H](CCCCN)NC(=O)OCC1c2ccccc2-c2ccccc21)C(=O)N[C@H](C(=O)N[C@@H](Cc1ccccc1)C(=O)N[C@@H](Cc1ccccc1)C(=O)N[C@@H](CCCCN)C(=O)NCC(=O)N[C@@H](Cc1ccccc1)C(=O)N[C@@H](C)C(=O)N[C@@H](Cc1c[nH]c2ccccc12)C(=O)N[C@@H](CC(N)=O)C(=O)N[C@H](C(=O)N[C@H]1CSSC[C@@H](C(=O)N[C@@H](Cc2c[nH]cn2)C(=O)N[C@@H](CCCNC(=N)N)C(=O)N[C@@H](CCCNC(=N)N)C(=O)N[C@@H](C)C(=O)N[C@@H](CC(N)=O)C(N)=O)NC(=O)[C@H](C(C)C)NC(=O)[C@H](CCCNC(=N)N)NC(=O)[C@H](C(C)C)NC(=O)CNC(=O)[C@H](CC(N)=O)NC(=O)[C@H](CCCNC(=N)N)NC(=O)[C@H](Cc2ccc(O)cc2)NC(=O)[C@H](C(C)C)NC1=O)C(C)C)C(C)C  eosinophils (ICR mouse, blood; intramammary, 5 mg/kg, day 5, 3 d dosing): 2.3 ± 0.16%
NCCCC[C@@H]1NC(=O)[C@@H](Cc2c[nH]c3ccccc23)NC(=O)[C@H](c2ccccc2)NC(=O)[C@@H]2C[C@@H](OC(=O)NCCN)CN2C(=O)[C@H](Cc2ccccc2)NC(=O)[C@H](Cc2ccc(OCc3ccccc3)cc2)NC1=O  subjects with adverse event Vomiting (healthy human volunteers; 1950 µg twice daily): 39%
CC1(C)C(/C=C(\Cl)C(F)(F)F)C1C(=O)OC(C#N)c1cccc(Oc2ccccc2)c1 (centres unmarked)  enzyme contribution to clearance (item: CYP3A5; human, age 6 months): 0.05%
CO[C@H]1C[C@@H]2CC[C@@H](C)[C@@](O)(O2)C(=O)C(=O)N2CCCC[C@H]2C(=O)O[C@H]([C@H](C)C[C@@H]2CC[C@@H](OC(=O)NCCOCCOCCOCCOCCOCCOCCOCCOCCC(=O)N3CCc4cc(Cn5nc(-c6ccc7oc(N)nc7c6)c6c(N)ncnc65)ccc4C3)[C@H](OC)C2)C[C@@H](O)[C@H](C)/C=C(\C)[C@@H](O)[C@@H](OC)C(=O)[C@H](C)C[C@H](C)/C=C/C=C/C=C/1C  dose-reducing adverse events (phase 1 dose escalation, item: neutropenia; advanced solid tumour patients; intravenous, 12 mg weekly, any grade): 0%
COc1cc2c(Oc3ccc4[nH]c(C)cc4c3F)ccnc2cc1OCC1(N)CC1  grade 1 or 2 Anorexia (paediatric recurrent refractory sarcoma; 8 mg/kg): 20%
Nc1ncnc2c1ncn2[C@@H]1O[C@@H]2COP(=O)([S-])O[C@@H]3[C@H](O)[C@@H](COP([O-])(=S)O[C@H]2[C@H]1O)O[C@H]3n1cnc2c(N)ncnc21.[Na+].[Na+] (some centres unmarked)  mean platelet volume (non-tumor-bearing mice, blood; intravenous, 1 mg/kg, toxicity study): 5.78 ± 0.78 fL
CC(C)[C@@H]1NC(=O)CNC(=O)[C@H](CC(N)=O)NC(=O)[C@H](CCCNC(=N)N)NC(=O)[C@H](Cc2ccc(O)cc2)NC(=O)[C@H](C(C)C)NC(=O)[C@@H](NC(=O)[C@@H](NC(=O)[C@H](CC(N)=O)NC(=O)[C@H](Cc2c[nH]c3ccccc23)NC(=O)[C@H](C)NC(=O)[C@H](Cc2ccccc2)NC(=O)CN)C(C)C)CSSC[C@@H](C(=O)N[C@@H](Cc2cnc[nH]2)C(=O)N[C@@H](CCCNC(=N)N)C(=O)N[C@@H](CCCNC(=N)N)C(=O)N[C@@H](C)C(=O)N[C@@H](CC(N)=O)C(N)=O)NC(=O)[C@H](C(C)C)NC(=O)[C@H](CCCNC(=N)N)NC1=O  breathing score (ICR mouse; ip, 5 mg/kg; direction not given): 0
COc1ccnc(C(=O)N[C@H]2COC(=O)[C@H](Cc3ccccc3)[C@@H](OC(=O)C(C)C)[C@H](C)OC2=O)c1OCOC(=O)C(C)C  DT50 (field soil, silty clay loam; normalised, northern France): 6.69 days
CCCCCCCCCCCCCCCC(=O)N[C@@H](CCC(=O)NCCCC[C@H](NC(=O)[C@H](CC(=O)O)NC(=O)[C@H](CO)NC(=O)[C@@H](NC(=O)[C@H](Cc1ccccc1)NC(=O)[C@@H](NC(=O)CNC(=O)[C@H](CCC(N)=O)NC(=O)[C@H](CO)NC(=O)[C@@H](N)Cc1c[nH]cn1)[C@@H](C)O)[C@@H](C)O)C(=O)N[C@@H](CO)C(=O)N[C@@H](CCC(=O)O)C(=O)N[C@@H](Cc1ccc(O)cc1)C(=O)N[C@@H](CC(C)C)C(=O)N[C@@H](CC(=O)O)C(=O)N[C@@H](CO)C(=O)N[C@@H](CCC(=O)O)C(=O)N[C@@H](CCCNC(=N)N)C(=O)N[C@@H](C)C(=O)N[C@@H](CCCNC(=N)N)C(=O)N[C@@H](CC(=O)O)C(=O)N[C@@H](Cc1ccccc1)C(=O)N[C@H](C(=O)N[C@@H](C)C(=O)N[C@@H](Cc1c[nH]c2ccccc12)C(=O)N[C@@H](CC(C)C)C(=O)N[C@@H](CCC(=O)O)C(=O)N[C@@H](C)C(=O)NCC(=O)NCC(=O)O)C(C)C)C(=O)O  atrial fibrillation (human, CrCl ≥20 to <30 mL/min; sc, 100 µg single dose): 0%
CC(C)(c1ccccc1)c1cc(-n2nc3ccccc3n2)c(O)c(C(C)(C)c2ccccc2)c1  daily dermal exposure dose (human aged 1-2 years; concentration not given, sunscreen, 95th percentile): 2.31 ng/kg/day
CCc1ccc(CC/C=C/c2ccc3c(c2)C(=O)CC3)cc1  TC (Sprague-Dawley rat, female; oral, 30 mg/kg/day, 14 days): 1.52 mM
C[C@H]1CN(c2n[nH]c3nc(N[C@H]4CC[C@H](NS(=O)(=O)CCC(F)(F)F)CC4)ncc23)CCO1  relative abundance (Stress-70 protein, mitochondrial (HSPA9, Homo sapiens, UniProt P38646); inhibitor, Kinobeads competition profiling; 0.16 µM; baseline: vehicle): 1.09
O=C(Nc1ccccc1)C1CCN(C(=O)Oc2cccnc2)CC1  change in Calm-excited score (Bond-Lader VAS; healthy women; 20 mg; baseline: pre-dose baseline, direction not given): -13

For quick reference, copied from above:
Cn1cncc1-c1c(F)cncc1NC(=O)c1c(N)nn2cc(F)cnc12  grade ≥3 hyperkalaemia incidence (human patients; oral, 80 mg once daily): 0%
COc1ccc2nc3cc(Cl)ccc3c(Nc3cc(CN4CCCC4)c(O)c(CN4CCCC4)c3)c2n1  mean platelet volume (mouse, blood; intraperitoneal, 57 mg/kg): 6.1 fL
